Published values from different studies.
Parts stem from different laboratories: compare values within a part only. Several values in a cell are separate wells, animals, samples, runs or records.
UniProt Q5BJF2, sequence (whole entry, looked up): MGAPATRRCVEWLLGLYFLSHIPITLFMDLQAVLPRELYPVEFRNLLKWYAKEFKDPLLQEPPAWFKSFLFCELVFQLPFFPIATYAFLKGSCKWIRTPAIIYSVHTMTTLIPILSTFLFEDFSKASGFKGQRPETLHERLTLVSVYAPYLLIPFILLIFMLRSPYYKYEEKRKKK

Set 1
Cell line: mouse MPNST tumor cells
Technique: high-content immunofluorescence imaging
Item: nuclear SOX9
Tested at: 10 µM
Time: 12 h
Notes: mean of 2 replicates
Relative to: DMSO control
Direction: higher = more nuclear SOX9
For `c1ccc(-c2oc3ncnc(NC[C@@H]4CCCO4)c3c2-c2ccccc2)cc1`, “nuclear SOX9 intensity” read 157 % of DMSO.
`O=C(COCC(=O)Nc1ccc(Cl)cc1C(=O)O)Nc1cccc(-c2ccoc2)c1` — result for “nuclear SOX9 intensity”: 117 % of DMSO.
`O=C(Nc1cc(-c2ccccc2)nn1-c1ccccc1)c1ccc([N+](=O)[O-])cc1` — result for “nuclear SOX9 intensity”: 128 % of DMSO.
Under “nuclear SOX9 intensity”, `COC(=O)C1=C(C)NC(C)=C(C(=O)OC(C)C)C1c1cccc2nonc12` (stereo not drawn) is recorded as 105 % of DMSO and 100 % of DMSO.
For `N=C(N)NC(=O)Cc1c(Cl)cccc1Cl`, “nuclear SOX9 intensity” read 102 % of DMSO and 95.1 % of DMSO.
For `NS(=O)(=O)c1cccc2c1c([N+](=O)[O-])cc1nc(O)c(O)nc12`, “nuclear SOX9 intensity” read 90.2 % of DMSO.
For `COc1cc(C(=O)NC2CCCNC2)cc(OC)c1OC` (stereo not drawn), “nuclear SOX9 intensity” read 94.7 % of DMSO.
`CN1Cc2c(C(=O)OC(C)(C)C)ncn2-c2ccsc2C1=O` — result for “nuclear SOX9 intensity”: 92.7 % of DMSO.
Under “nuclear SOX9 intensity”, `CCCCCCCCCCCCc1ccc(S(=O)(=O)Nc2nncs2)cc1` is recorded as 91.7 % of DMSO.
`CN(Cc1ccccc1)C(=O)[C@H](Cc1ccc2ccccc2c1)NC(=O)[C@@H]1CCCN1C(=O)Nc1ccccc1[N+](=O)[O-]`: “nuclear SOX9 intensity” 133 % of DMSO.
`Cc1cc(Cn2c(=O)n(Cc3cnc(C)s3)c(=O)c3cc(S(=O)(=O)NC4(C)CC4)ccc32)n(C)n1`: “nuclear SOX9 intensity” 109 % of DMSO.
`CN(C)C(=O)n1nnnc1Cc1ccc(-c2ccccc2)cc1`: “nuclear SOX9 intensity” 142 % of DMSO.
Under “nuclear SOX9 intensity”, `CCCCCCCCCCC(O)C1C=CC2C(=O)N(c3ccccc3)C(=O)C2N1Nc1ccc([N+](=O)[O-])cc1` (stereo not drawn) is recorded as 104 % of DMSO.
`O=C(O)CCNC(=O)c1ccc(/N=N/c2ccc(O)c(C(=O)O)c2)cc1` — result for “nuclear SOX9 intensity”: 96.1 % of DMSO.
`CN1CCOC(c2ccccc2)c2ccccc2C1` (stereo not drawn) — result for “nuclear SOX9 intensity”: 105 % of DMSO.

Set 2
Organism: Plasmodium berghei
Mode: inhibitor
Cell line: Huh-7
Strain: GFP-expressing, liver stage
Tested at: 10 µM
Time: 24 h
Relative to: untreated control
With `CNCCC=C1c2ccccc2CCc2ccccc21` the infection rate was 79.9%.
With `Cc1ccc(/C(=C\CN2CCCC2)c2ccccn2)cc1` the infection rate was 76.8%.
`NNCCc1ccccc1` has an infection rate of 81.9%.
`N=C(N)NC(=N)NCCc1ccccc1` has an infection rate of 79.7%.
For `CCOC(=O)C1=C[C@]2(CC)CCCN3CCc4c(n1c1ccccc41)[C@@H]32`, the infection rate was 96.7%.
`COc1ccc(NS(=O)(=O)c2ccc(N)cc2)nn1` has an infection rate of 94.7%.
`COc1cc(NC(C)CCCN)c2ncccc2c1` (stereo not drawn) gave an infection rate of 66.2%.
`Nc1ncnc2c1ncn2[C@@H]1O[C@H](CO)[C@@H](O)[C@@H]1O` has an infection rate of 67%.
With `Cc1cc(C)nc(NS(=O)(=O)c2ccc(N)cc2)n1` the infection rate was 123%.
For `CC1COc2c(N3CCN(C)CC3)c(F)cc3c(=O)c(C(=O)O)cn1c23` (stereo not drawn), the infection rate was 91.1%.
For `CCN1CCCC1CNC(=O)c1cc(S(N)(=O)=O)ccc1OC` (stereo not drawn), the infection rate was 82%.
The infection rate of `Clc1ccc(C(Cn2ccnc2)OCc2ccsc2Cl)c(Cl)c1` (stereo not drawn) is reported as 29.4%.
With `OC[C@H]1O[C@H](O[C@]2(CCl)O[C@H](CCl)[C@@H](O)[C@@H]2O)[C@H](O)[C@@H](O)[C@H]1Cl` the infection rate was 116%.
For `Nc1ccc(C(=O)O)cc1`, the infection rate was 106%.
`COc1ccc2c(c1OC)C(=O)O[C@@H]2[C@H]1c2c(cc3c(c2OC)OCO3)CCN1C` has an infection rate of 100%.
`CN(C)[C@@H]1C(O)=C(C(N)=O)C(=O)[C@@]2(O)C(O)=C3C(=O)c4c(O)cccc4[C@@](C)(O)[C@H]3[C@H](O)[C@@H]12` gave an infection rate of 91.2%.
`CC[C@H]1OC(=O)[C@H](C)C(=O)[C@H](C)[C@@H](O[C@@H]2O[C@H](C)C[C@H](N(C)C)[C@H]2O)[C@](C)(OC)C[C@@H](C)C(=O)[C@H](C)[C@H]2N(CCCCn3cnc(-c4cccnc4)c3)C(=O)O[C@]12C` has an infection rate of 86.9%.
The infection rate of `Cc1cc(-n2c(=O)[nH]c(=O)n(C)c2=O)ccc1Oc1ccc(SC(F)(F)F)cc1` is reported as 89.6%.

Set 3
SMILES: COc1cc(C(=O)N2CCC(N3CCN(C)CC3)CC2)ccc1Nc1ncc2c(n1)N(C)c1ccccc1C(=O)N2C
For mouse CaMK2α/β/δ/γ; probe labelling, KiNativ ADP probe; mouse brain lysate; 0.1 µM, LYS2 site DLkPENLLLASK: inhibition read -1%.
The inhibition was -1.6% (MAP2K6 (mouse); probe labelling, KiNativ ATP probe; mouse brain lysate; 1 µM, LYS2 labelled site).
For mouse IKKε and TBK1; probe labelling, KiNativ ATP probe; mouse brain lysate; 0.1 µM, LYS2 site DIkPGNIMR: inhibition read -7.2%.
It gave -38.2% for inhibition (OSR1 (mouse); probe labelling, KiNativ ATP probe; mouse brain lysate; 0.1 µM, LYS2 labelled site).
It gave -14.9% for inhibition (AMPKa1 and AMPKa2 (mouse); probe labelling, KiNativ, item: VAVkILNR peptide, Lys1 site; brain tissue lysate (mouse); 1 µM, added: ADP acyl-phosphate probe).
The inhibition was -14.2% (HGK (MAP4K4) human; KiNativ profiling; human PBMC lysate; concentration not given, Lys1 site, added: ATP probe 1 µM).
The inhibition was -7.8% (mouse PFTAIRE1; probe labelling, KiNativ ADP probe; mouse brain lysate; 0.1 µM, LYS1 site LVALkVIR).
It gave -8% for inhibition (p38alpha human; KiNativ profiling; human PBMC lysate; concentration not given, ATP probe, other site).
For SLK human; KiNativ profiling; human PBMC; 1 µM, LYS2 site, added: ATP acyl phosphate probe: inhibition read 20.3%.
It gave -33.3% for inhibition (human PBMC; probe labeling, inhibitor, KiNativ profiling; cell lysate; concentration not given, domain 1, LYS2 site, added: ATP acyl-phosphate probe 1 µM).
CaMK2g (mouse); probe labelling, KiNativ, item: Lys1 site peptide; brain tissue lysate (mouse); 1 µM, added: ADP acyl-phosphate probe — inhibition: 9.6%.
For mouse PYK2; probe labelling, KiNativ ATP probe; mouse brain lysate; 1 µM: inhibition read -4.6%.
The inhibition was -9.4% (mouse JNK1/JNK2/JNK3; probe labelling, KiNativ ATP probe; mouse brain lysate; 1 µM, LYS2 site DLkPSNIVVK).

Mixed results
`O=C(Nc1cccnn1)N1CC(CC=Cc2cncc(Oc3ccc(C(F)(F)F)cn3)n2)C1` gave a Ki of 8.41 µM (TMEM97 (Homo sapiens, UniProt Q5BJF2); GPCR binding panel).
`Cn1cncc1[C@@](O)(COc1ccc(C#N)cc1-c1ccc(OC(F)(F)F)cc1)c1ccc(C#N)cc1` has a mitotic cells of 83.3% and 78.4% (HEK293T; high-content imaging; 10 µM, 0 h).

For quick reference, copied from above (set 1):
Under “nuclear SOX9 intensity”, `COC(=O)C1=C(C)NC(C)=C(C(=O)OC(C)C)C1c1cccc2nonc12` (stereo not drawn) is recorded as 105 % of DMSO and 100 % of DMSO.
`CN1CCOC(c2ccccc2)c2ccccc2C1` (stereo not drawn) — result for “nuclear SOX9 intensity”: 105 % of DMSO.
For `NS(=O)(=O)c1cccc2c1c([N+](=O)[O-])cc1nc(O)c(O)nc12`, “nuclear SOX9 intensity” read 90.2 % of DMSO.
`O=C(Nc1cc(-c2ccccc2)nn1-c1ccccc1)c1ccc([N+](=O)[O-])cc1` — result for “nuclear SOX9 intensity”: 128 % of DMSO.
`O=C(O)CCNC(=O)c1ccc(/N=N/c2ccc(O)c(C(=O)O)c2)cc1` — result for “nuclear SOX9 intensity”: 96.1 % of DMSO.
